Published values of several laboratories.
Each numbered part is a random draw from the data of one study; scales do not carry over between parts. Substitutions count along the parent as printed.

Set 1
Target: ABI1, truncated, D143A, DHFR fusion (Arabidopsis thaliana)
Technique: DHFR PCA, deep sequencing
Matrix: yeast
Setting: methotrexate growth selection, single substitutions
Added: (+)-ABA 2500 µM
Relative to: wild-type fitted maximum
Direction: higher = stronger binding
Starting sequence: PYL1, truncated, DHFR fusion (Arabidopsis thaliana); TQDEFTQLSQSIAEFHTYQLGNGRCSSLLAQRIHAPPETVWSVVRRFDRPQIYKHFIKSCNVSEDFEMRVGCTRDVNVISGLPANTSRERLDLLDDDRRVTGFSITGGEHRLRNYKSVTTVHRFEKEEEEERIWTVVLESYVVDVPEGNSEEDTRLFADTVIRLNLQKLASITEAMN; partner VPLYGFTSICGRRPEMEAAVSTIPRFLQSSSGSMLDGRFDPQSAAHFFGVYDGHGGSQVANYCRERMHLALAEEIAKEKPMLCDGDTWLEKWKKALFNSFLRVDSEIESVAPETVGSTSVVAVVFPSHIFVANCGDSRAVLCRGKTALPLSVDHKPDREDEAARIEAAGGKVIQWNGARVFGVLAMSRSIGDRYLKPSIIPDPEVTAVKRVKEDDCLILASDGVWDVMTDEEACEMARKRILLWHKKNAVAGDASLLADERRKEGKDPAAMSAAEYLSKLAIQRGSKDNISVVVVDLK
Under “relative binding score”, `M68A` is recorded as 91.8%.
`R24H`: “relative binding score” 98.3%.
Under “relative binding score”, `E128F` is recorded as 98%.
Under “relative binding score”, `C60E` is recorded as 36.4%.
Under “relative binding score”, `T173D` is recorded as 45.3%.
`D96M` — result for “relative binding score”: 81.8%.
For `S171V`, “relative binding score” read 95.9%.
`F47L` — result for “relative binding score”: 4.47%.
Under “relative binding score”, `A170M` is recorded as 89.8%.
`H110P` — result for “relative binding score”: 38.8%.
For `T39P`, “relative binding score” read 90.4%.
`V76S` — result for “relative binding score”: 77%.
`G71F` — result for “relative binding score”: 74.2%.
`R163I`: “relative binding score” 65.8%.
`F56I`: “relative binding score” 37.3%.
`R123E` — result for “relative binding score”: 109%.

Set 2
Target: RING finger protein unkempt homolog, zinc fingers 1-6, GST-SBP tag (UNK, Homo sapiens, UniProt Q9C0B0, residues 30-357)
Technique: RNA Bind-n-Seq
Molecule type: RNA
Matrix: in vitro
Concentration: not given
Setting: RNA with constant flanks, human and mouse sites, ends assumed
Relative to: input RNA pool
Direction: higher = stronger binding
Constant ends, left off below: GGGAGUUCUACAGUCCGACGAUC … CAACAGAGGAUUGAGCAUCA
Residues (chain): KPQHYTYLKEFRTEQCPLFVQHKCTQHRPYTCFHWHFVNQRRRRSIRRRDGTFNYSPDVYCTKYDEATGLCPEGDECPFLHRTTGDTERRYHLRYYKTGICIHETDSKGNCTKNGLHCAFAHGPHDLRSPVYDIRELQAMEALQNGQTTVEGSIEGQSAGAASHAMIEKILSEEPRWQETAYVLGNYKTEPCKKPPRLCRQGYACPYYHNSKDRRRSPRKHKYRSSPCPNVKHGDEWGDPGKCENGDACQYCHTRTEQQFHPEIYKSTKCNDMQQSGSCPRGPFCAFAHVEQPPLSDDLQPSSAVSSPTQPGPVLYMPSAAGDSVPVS
`GCUGGAUGAUACCAUAAUGUAUCAAGGAGCGUCCAUGGAUACAAGAUAAGAUGUGUACCUUAGUAGAAUACAGAGCUUUGGUAAUUACAUGAAUAAAAUUAAGAAAAUAGCCAUAUACAA` has a bound/input enrichment of 2.63 ratio.
For `GGGGUUCUUGCUGCCGUUCUAAUAUUUUUUUAAGCAUAGACAGACUUAUAAUUAAUAUACGUUAGUUAGUGACAUUGAAACAGUCAACUCGGAAAUUAACUAUAAGACUUGUUCUAUUUA`, the bound/input enrichment was 0.916 ratio.
With `AUAGCCCUUCCAAUGAAAGAGCAGCUUUCAACUACAUACUUUACAUCUGGAGAGACCUUUGGUCAGGAAAAACCUGCAUCUCAGUUACCAUCUGGCAGUCCUUCUGUUUCCUCUCUUCCA` the bound/input enrichment was 0.298 ratio.
`UAUGGUCUGGUCUUCGCUGGUGGAGCCAGUGGCUUGCAGAUUUUUCCUACUAAAAAUCUUCUUAUUCAAAAUAAACCCGGAGAUGAUCCCAACAAAAUAGUUGAUAAAGUCCAAGGCUUG` has a bound/input enrichment of 0.361 ratio.
With `CAUCUGUCUUGUCUGUCUGUCUGUCUAUCUAUCUAUCUAUCUAUCUAUCUAUCUAUCUAUCUAUCUAUCUAUCUAUCUAUCAUCUGUCUUGUCUGUCUGUCUGUCUGUCUAUCUAUCUAU` the bound/input enrichment was 85.2 ratio.
`AAAACCCAGCAGAAUGUAAUUCAGUAUUUGUUUAUUGGCUGUUUUUUGACAGAUUGUUGAAAUUAAAUGAAUUGAAAGGGAAACUCAGAGUACUAGGACGUUUAUUAAAAGGAAAAAAAU` gave a bound/input enrichment of 1.55 ratio.
`CUUCUGCAGCUCAUCUCAUGCCUGCAGUGCCGGCGGUGUCCCCAUUACUUCUUACCGAACUUAGAUCUGUUUCAAGGCAAACCCCACUCGGCCUUGGAAAACGCUGCUAAACAAACGUGG` has a bound/input enrichment of 0.459 ratio.
For `CCGACGCGCGUCUGUGGAGAAGCGGCUUGGUCGGGGGUGGUCUCGUGGGGUCCUGCCUGUUUAGUCGCUUUCAGGGUUCUUGAGCCCCUUCACGACCGUCACCAUGGAAGUGUCACCAUU`, the bound/input enrichment was 0.0844 ratio.

Set 3
Target: RNA binding protein fox-1 homolog 2, RRM domain, GST-SBP tag (RBFOX2, Homo sapiens, UniProt O43251-10, residues 100-194)
Technique: RNA Bind-n-Seq
Molecule type: RNA
Matrix: in vitro
Concentration: 365 nM
Setting: natural RNA segment, single round, ends assumed
Relative to: no-protein control
Direction: higher = stronger binding
Constant ends, left off below: GGGAGUUCUACAGUCCGACGAUC … UGGAAUUCUCGGGUGCCAA
Residues (chain): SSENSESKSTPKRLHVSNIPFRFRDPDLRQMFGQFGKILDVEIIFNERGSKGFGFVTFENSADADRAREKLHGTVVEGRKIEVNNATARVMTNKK
Under “RBNS enrichment (R)”, `GAGUGCCUGCCUCGGCUGUGGCACUUCCAGGUUCGACUGAAUCAAGCAUCUGAAGACUGGGUUUUUUUGUUGUUGUUGUUCCCCUUACAGACAAAAUGAAGACUAUCAUG` is recorded as 2.44.
`CACCGACUCCACCUCAGAGCAUGGUGCCUCCGUUUUCCCUUCCUAGUGACCCCAGGUUUAGCAUCGUCCUAUACUGUUCCCUCCACUCCUCCAUGACCCUCUGAGUGAUG` — result for “RBNS enrichment (R)”: 0.596.
`UGCCAUUAUGUGUGGUCUUCCCAUUAAAUGUGAACAUUUUAAUAUGUAUGCAUUCACCUUGCCUCUUGCACAAAUGUCAAAAAAAAGAUGGUAAUAUCUCAAAGAAAUGA` — result for “RBNS enrichment (R)”: 0.421.
`AAAUAACUAUCUCACAUAGCGCUUCUAAUUUGCCGCGUGUGAGGGGAGCAUUCUGGGAUGGUUUUGUUUCUCCCUUUUUGUGCCGAAUGGAGAAUAAAAUACUUCAAACG`: “RBNS enrichment (R)” 0.308.
For `CUGGUGACAUGGCACCACUCAGCAGUGCUGUCACUGUAAGCAUGGACUCCCAGGAGACAGUGUGGGAAACGCUCCUGCUUUAAUUCCCCGAGAAACGGCUCUUCCUGCCU`, “RBNS enrichment (R)” read 0.929.
`AUAUAGUGCCCUUGGAAGAAAAUUAGGCCUCAAAUGACAGUAGCAUUGAAGUGUUUGCUGCAGAGUUGAGGGAAACCCCCAGCCACCCUCCCGGAAUCCGAGAUAGGGUG` — result for “RBNS enrichment (R)”: 0.414.
`AACCUGGAUGGGGAAAAGCAUUUCCCAUAGCACUCCAUGUAAUAUGAGUGCUCUGUGAGAUGUUCAUCAGUGUUUUAUAGAAAUGGUGUUGCUGGGAAACCAAGUUUGCA` — result for “RBNS enrichment (R)”: 3.31.
For `CUGUCAGUCGUGUAUUAUACUAAGGCAAGUGUUGUAAAGAUGAAUUACAAAUAGAUCUAGGAACUGGGUCAUAGUUGGCUGGUGGGACAUUAUAGUUGUAAAGCUCAAGU`, “RBNS enrichment (R)” read 0.325.

Set 4
Target: CCNA1, cyclin fold, Cln2 fusion (human)
Technique: yeast growth competition, sequencing
Matrix: yeast
Setting: weak parent motif
Relative to: not given
Direction: higher = stronger binding
Starting sequence: DOT1L docking peptide (human); SEAKRRIVFTITT
`SEAKRRIVFTITA [T13A]`: “normalised enrichment score” 0.112.
Under “normalised enrichment score”, `SAAKRRIVFTITT [E2A]` is recorded as 0.476.
Under “normalised enrichment score”, `SEAKRRIVFTIAT [T12A]` is recorded as 0.126.
`AEAKRRIVFTITT [S1A]`: “normalised enrichment score” 0.455.
`SEAKRRIVFTATT [I11A]`: “normalised enrichment score” 0.092.
`SEAKRRIVFAITT [T10A]` — result for “normalised enrichment score”: -0.0704.

A few entries again (set 2):
With `CAUCUGUCUUGUCUGUCUGUCUGUCUAUCUAUCUAUCUAUCUAUCUAUCUAUCUAUCUAUCUAUCUAUCUAUCUAUCUAUCAUCUGUCUUGUCUGUCUGUCUGUCUGUCUAUCUAUCUAU` the bound/input enrichment was 85.2 ratio.
For `CCGACGCGCGUCUGUGGAGAAGCGGCUUGGUCGGGGGUGGUCUCGUGGGGUCCUGCCUGUUUAGUCGCUUUCAGGGUUCUUGAGCCCCUUCACGACCGUCACCAUGGAAGUGUCACCAUU`, the bound/input enrichment was 0.0844 ratio.
`CUUCUGCAGCUCAUCUCAUGCCUGCAGUGCCGGCGGUGUCCCCAUUACUUCUUACCGAACUUAGAUCUGUUUCAAGGCAAACCCCACUCGGCCUUGGAAAACGCUGCUAAACAAACGUGG` has a bound/input enrichment of 0.459 ratio.
With `AUAGCCCUUCCAAUGAAAGAGCAGCUUUCAACUACAUACUUUACAUCUGGAGAGACCUUUGGUCAGGAAAAACCUGCAUCUCAGUUACCAUCUGGCAGUCCUUCUGUUUCCUCUCUUCCA` the bound/input enrichment was 0.298 ratio.
`GCUGGAUGAUACCAUAAUGUAUCAAGGAGCGUCCAUGGAUACAAGAUAAGAUGUGUACCUUAGUAGAAUACAGAGCUUUGGUAAUUACAUGAAUAAAAUUAAGAAAAUAGCCAUAUACAA` has a bound/input enrichment of 2.63 ratio.
For `GGGGUUCUUGCUGCCGUUCUAAUAUUUUUUUAAGCAUAGACAGACUUAUAAUUAAUAUACGUUAGUUAGUGACAUUGAAACAGUCAACUCGGAAAUUAACUAUAAGACUUGUUCUAUUUA`, the bound/input enrichment was 0.916 ratio.
